Results of several laboratories.
Numbered parts are unrelated; each lists some results of a single study. Changes are numbered by the printed parent chain.

Set 1
Target: ABI1, truncated, D143A, DHFR fusion (Arabidopsis thaliana)
Technique: DHFR PCA, deep sequencing
Medium: yeast
Notes: methotrexate growth selection, single substitutions
Added: (+)-ABA 0 µM
Baseline: wild-type fitted maximum
Reading: higher = stronger binding
Quantity: relative binding score
Parent: PYL1, truncated, DHFR fusion (Arabidopsis thaliana); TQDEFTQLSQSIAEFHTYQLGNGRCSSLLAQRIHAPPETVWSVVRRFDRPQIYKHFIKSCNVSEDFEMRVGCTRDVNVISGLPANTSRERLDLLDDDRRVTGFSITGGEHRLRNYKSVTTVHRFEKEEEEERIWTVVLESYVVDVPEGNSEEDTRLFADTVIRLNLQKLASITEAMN; partner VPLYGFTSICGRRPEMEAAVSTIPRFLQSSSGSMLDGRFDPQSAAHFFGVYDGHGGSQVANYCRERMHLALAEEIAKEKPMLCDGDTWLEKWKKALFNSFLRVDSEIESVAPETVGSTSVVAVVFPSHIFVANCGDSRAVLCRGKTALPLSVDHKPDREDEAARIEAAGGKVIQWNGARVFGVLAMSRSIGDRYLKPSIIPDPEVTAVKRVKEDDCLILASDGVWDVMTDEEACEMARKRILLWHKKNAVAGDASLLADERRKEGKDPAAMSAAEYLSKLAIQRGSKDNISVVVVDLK
G21A: 20.5%
G108H: -3.89%
T120A: -3.28%
F103Q: -4.63%
V70M: -0.849%
L156W: 3.67%
R99D: -4.94%
T39F: 4.44%
T120E: -2.08%
C72F: -0.315%
D3W: 21.9%
L91Y: 6.06%
R155P: 3.36%
D75E: 46.3%
A175L: 2.84%
L169H: 5.48%
V161K: 1.94%
I105Y: -5.02%

Set 2
Target: Histone acetyltransferase KAT6A, winged helix 2, GST fusion (KAT6A, Homo sapiens, UniProt Q92794, residues 85-181)
Technique: protein binding microarray
Molecule type: double-stranded DNA, one strand shown
Medium: in vitro
Tested at: not given
Notes: 8-mer, flanks averaged, mean of 2 arrays, mostly near background
Baseline: not given
Reading: higher = stronger binding
Quantity: E-score
Residues (chain): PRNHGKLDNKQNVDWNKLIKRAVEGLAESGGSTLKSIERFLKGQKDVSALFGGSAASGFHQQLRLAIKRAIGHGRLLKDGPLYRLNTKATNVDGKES
AATAGCGA: -0.0797
ATAGGATG: -0.173
ATCTAGCC: -0.16
CCCTATCC: -0.0779
CATCCAGG: 0.0582
TATGCACA: -0.0518
GTCCTGCA: -0.0762
TACTGAAA: 0.129
ATTGATTG: -0.024
GAGACAGA: 0.0113
ATTGTTGA: 0.0544
AGGAGCCC: 0.0471
CGAACTGA: -0.0898
AATGACTA: -0.246
CAAGGGAA: -0.0193
CCCTACAG: -0.139
ACGAGTTA: -0.0137
TAAGGCGA: -0.0245
AAGCACCG: 0.0487
AAAACAGG: -0.107
CCTTACGA: -0.0595
ATGGCGCA: 0.0333
CTCGAGTA: 0.0264
GACACGAC: -0.0573

Set 3
Target: Phosphate system positive regulatory protein PHO4, full length, GST-tagged (PHO4, Saccharomyces cerevisiae, UniProt P07270, residues 1-312)
Technique: competition protein-binding microarray
Molecule type: double-stranded DNA, one strand shown
Medium: in vitro
Tested at: 2 µM
Notes: whole 60-bp probe, lowest competitor level
Added: Cbf1 competitor, 0.05 µM
Reading: higher = stronger binding
Quantity: fluorescence intensity
Shared flanks, not repeated: … GTCTTGATTCGCTTGACGCTGCTG
Target sequence (chain): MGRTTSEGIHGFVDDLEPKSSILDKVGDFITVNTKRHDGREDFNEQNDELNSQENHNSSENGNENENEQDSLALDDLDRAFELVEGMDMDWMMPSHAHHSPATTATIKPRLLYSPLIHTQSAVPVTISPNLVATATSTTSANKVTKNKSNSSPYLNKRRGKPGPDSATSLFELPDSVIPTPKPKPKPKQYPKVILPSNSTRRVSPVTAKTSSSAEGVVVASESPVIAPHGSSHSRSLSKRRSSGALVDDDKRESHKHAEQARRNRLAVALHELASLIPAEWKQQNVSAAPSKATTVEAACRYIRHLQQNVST
AAAGCGGTAATTTTTCACGTGATTTCACATATCTAT: 12000 a.u.
CTTCTGTAAATTTGGCGAGTGGGTGGACGCGCCCCG: 4510 a.u.
TTCCGTTATTGTTAGCGCGTGAAACTGCCATGTCGG: 5520 a.u.
CCAAGGCAGCCTCACCACGGGCGGTCTTGTGGGAAA: 6950 a.u.
TTGATCTTGCCAAGTCTCGTGGTGAACTATCCATTT: 7720 a.u.
CATACCCAACCTTGGGTGGTGGGTGAAGATATTTGT: 4700 a.u.
CTTTCCCGATCTTGCAGCGTGGGTGTAGCACATTTG: 8530 a.u.
AGAGCCGATACGGCACCCGTGCGATACGAGACAGGA: 8220 a.u.
ATCTTTCCACCCTGGCACGTGTTTCTTGTACATTTG: 20200 a.u.
AAGGAGGGTAAGACACACATGATAATCAATGTCGAA: 6150 a.u.
AACCAGACGAGGTATTGCATGACGCGGAAATCGCAA: 4890 a.u.
CGGGGTTAAGTTTGTCCGGTGGGTGGCTTGCAGCAG: 4560 a.u.
TGCATCCTCTCCGGCCACGTGGGTAGAGGTTTTACC: 19400 a.u.
GGCTTGCAACTCCGTCACATGAGGTATGGGGGACAT: 6920 a.u.
CTCCGGAAGAAAGAGCTCGTGGTGATACAATTTCTA: 11200 a.u.
AGTGGGATCGTTCGTCACAGCGTCGATAGGGTAAGG: 3170 a.u.
CGTCCTAGTGATTGCCAAGTGGGTGCCATGAGGAAG: 7070 a.u.
GGTCCCGGTCTACCGCTCGTGGCAATTTCAAAAGCC: 9120 a.u.

Set 4
Target: CCNE2, cyclin fold, Cln2 fusion (human)
Technique: yeast growth competition, sequencing
Medium: yeast
Notes: strong parent motif
Baseline: not given
Reading: higher = stronger binding
Quantity: normalised enrichment score
Parent: GMNC docking peptide (human); KNAKRNLSSEFAN; partner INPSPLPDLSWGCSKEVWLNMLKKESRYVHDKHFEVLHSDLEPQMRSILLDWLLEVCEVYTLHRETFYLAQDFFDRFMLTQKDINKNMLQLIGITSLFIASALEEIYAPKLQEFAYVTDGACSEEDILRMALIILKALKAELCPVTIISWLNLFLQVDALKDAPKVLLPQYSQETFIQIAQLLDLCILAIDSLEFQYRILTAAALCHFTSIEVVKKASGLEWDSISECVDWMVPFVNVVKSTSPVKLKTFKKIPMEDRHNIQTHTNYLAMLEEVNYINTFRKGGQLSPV
KNKKRNLSSEFAN [A3K]: 0.522
KNAKFNLSSEFAN [R5F]: 0.212
KNAARNLSSEFAN [K4A]: 0.86
KNAKRNLSSQFAN [E10Q]: 1.24
KRAKRNLSSEFAN [N2R]: 1.59
KNAKCNLSSEFAN [R5C]: 0.153
KNAKRNLSSEFDN [A12D]: 1.22
KNAKRNLSSEFVN [A12V]: 1.15
KNAKRNVSSEFAN [L7V]: 0.516
KNAKRNLSSEFQN [A12Q]: 1.21
KNAKRNLSSENAN [F11N]: -0.0927
KNAKRYLSSEFAN [N6Y]: -0.379
KNAKRNLSSEFNN [A12N]: 1.51
KNAKRNLSTEFAN [S9T]: 1.63
KFAKRNLSSEFAN [N2F]: 1.03
KNAKRFLSSEFAN [N6F]: 0.388
KNAKRNLSSAFAN [E10A]: 0.828
KNDKRNLSSEFAN [A3D]: 0.233
KNAKRNLSLEFAN [S9L]: 2.16
KNAPRNLSSEFAN [K4P]: 0.505
KNAKRNLSSEFFN [A12F]: 1.08
KYAKRNLSSEFAN [N2Y]: 0.846
KNAKRNLSSEFMN [A12M]: 1.42
KNAKRNLDSEFAN [S8D]: 0.796
KNAKRNLVSEFAN [S8V]: 1.3

Set 5
Target: RNA binding protein fox-1 homolog 2, RRM domain, GST-SBP tag (RBFOX2, Homo sapiens, UniProt O43251-10, residues 100-194)
Technique: RNA Bind-n-Seq
Molecule type: RNA
Medium: in vitro
Tested at: 365 nM
Notes: natural RNA segment, single round, ends assumed
Baseline: no-protein control
Reading: higher = stronger binding
Quantity: RBNS enrichment (R)
Shared flanks, not repeated: GGGAGUUCUACAGUCCGACGAUC … UGGAAUUCUCGGGUGCCAA
Target sequence (chain): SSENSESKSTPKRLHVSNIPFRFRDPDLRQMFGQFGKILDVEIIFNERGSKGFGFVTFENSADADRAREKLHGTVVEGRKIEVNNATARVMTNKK
GCAGUGCUGCCAGCUUUUCAAGGGUCCUGACUCUGUCAGACACUUUCUGGAUUCAGCCACUAAGGACAUCUGUGGUACAAGGUGCACCUUUGCAAAUGUGUAUGAUGCCA: 0.248
AGAAACUCACAUUUUCUUUAAAGCUAUCACACUUUGUCUUCUUAUCCCCUGCUUCCUGUUCCUUCAGCCUCCCUUCCCUUUCCUUCCUGGAUCUCUGAUUAUCUUGUGAU: 1.23
AUUAAAAAUAUUUUGAUUUAAAUAACAAAAAUAAUACCAGAUUUUAAGCCGUGGAAAAUGUUCUUGAUCAUUUGCAGUUAAGGACUUUAAAUAAAUCAAAUGUUAACAAA: 0.578
GCCAAAGGUCAAUUUUACAGAAGAUGAGUUUAAAAAUGUUUGGACAUUUCUUGGAGGUGGCUGUGUGGGGAACGGCUUGCUUACAGGUACAGCAGGUACAACCGCCUGAC: 0.785
AGAAAAUAUUGCACAAAGGUUUCCCUCAGGAAACCUAGUGCAGAUAGCCAUGGAAGCAUAGCCACUGGAAAGGAACAGUGCAUGAGGCAGAUGUUCGUUUCUGGUGGAAA: 0.85
UGGAAAGACAUGCACUUUUUAGUUGACUAAUUCUUCCUCCCAUUCCCCUCUACUUGCGAGUUAUGGAAUUUCUAUUCCAUAACUGAAGUCUUUAUGAUAACCUAAUUUUU: 1.03
AAACAACUACAUUUUAAAAACUGACUUAAUGCUCUUCAAAAUAAAACAUCACCUAUUUAAUGUUUUUAAUCACAUUUUGUAUGGAGUUAAAUAAAGUACAGUGCUUUUGU: 0.727
CUGCAUGAAUCCGUGUGGCUGUCGUCUUUGUUUACCAUGGCUGCUGCUGUGGGACUGUUUUUUCCUCUGACAUGCCAAAUGUAACUUCUGUAAGUGGUGGAGAGUGCUGU: 15.3
UUUUUUUCAUCUUUUUUUGUUAACUAAUUUGCAAUAAAAAUGAUACUGAUGGUUGUCCACAUUUUGCAAACUUGGAGUGUGGUUUGGUUCACUUUUUGGGGAGUGUGACA: 0.708
GGACUGAGAGACUCCACGCAGGCGAAUUCCCGUUUGGGGCUUUUUUUUCCUCCCUCUUUUCCCCUUGCCCCCUCUGCAGCCGGAGGAGGAGAUGUUGAGGGGAGGAGGCC: 0.253
GAGGCUCAAGGAUAGAUGAGCUCUGAGUUUCUCAGUACUCCCUCAAGACUGGACAUCUUGGUCUUUUUCUCAGGCCUGAGGGGGAACCAUUUUUGGUGUGAUAAAUACCC: 0.521
UGUGGUUUCCAGAUGAGGGUCUGGGUCCCGGAAGCUUGUGUUGAGAGCUCAGUGGACCCACCCCGCUUGCUGAACCCUCACAGUUCUUGGGGUUGUCCAGCCUGGACUUG: 0.365
